Experimental data of several laboratories.
Each numbered part is a random draw from the data of one study; scales do not carry over between parts. Changes are numbered by the printed parent chain.

Block 1
Target: ABI1, truncated, D143A, DHFR fusion (Arabidopsis thaliana)
Technique: DHFR PCA, deep sequencing
Medium: yeast
Notes: methotrexate growth selection, single substitutions
Together with: (+)-ABA 710 µM
Relative to: wild-type fitted maximum
Reading: higher = stronger binding
Starting sequence: PYL1, truncated, DHFR fusion (Arabidopsis thaliana); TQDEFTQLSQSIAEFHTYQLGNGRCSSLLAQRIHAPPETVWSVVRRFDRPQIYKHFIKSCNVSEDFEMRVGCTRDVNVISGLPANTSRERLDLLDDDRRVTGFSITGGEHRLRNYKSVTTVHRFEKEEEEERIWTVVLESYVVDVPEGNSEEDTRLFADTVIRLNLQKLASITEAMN
Change	relative binding score
H34Y	100%
L166N	41%
G81L	22.4%
G71I	1.68%
G102N	18.1%
I79K	103%
R132A	113%
Q7P	97.9%
T106V	110%
F5H	107%
R132S	113%
L8C	110%
T1N	105%
E89R	7.63%
S63Y	94.7%
I57Q	68.5%
R69T	102%
A175W	91.3%
G71P	71.2%
E125N	111%
S63G	103%
Q2T	89.2%
E129I	92.8%
N114K	88.2%
W134D	102%

Block 2
Target: CCNA2, cyclin fold, Cln2 fusion (human)
Technique: yeast growth competition, sequencing
Medium: yeast
Notes: strong parent motif
Relative to: not given
Reading: higher = stronger binding
Starting sequence: SGO1 docking peptide (human); PLAKRALKYTDEK
Change	normalised enrichment score
L2A	4.79
K8A	2.7
E12A	3.09
Y9A	0.313
K13A	3.96
D11A	2.39

Block 3
Target: CEBPB, bZIP domain (human)
Technique: DHFR protein complementation
Medium: yeast
Notes: single substitutions, most at no-binding floor
Relative to: wild-type JUN-FOS pair
Reading: higher = stronger binding
Starting sequence: JUN, bZIP domain (human); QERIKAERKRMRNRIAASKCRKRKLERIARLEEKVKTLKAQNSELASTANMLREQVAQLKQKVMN; partner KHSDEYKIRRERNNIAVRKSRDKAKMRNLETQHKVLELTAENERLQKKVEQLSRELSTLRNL
Change	binding fitness [natural log]
L52T	-1.52
R30E	-0.907
K34P	-1.5
R53H	-1.35
K34T	-1.37
L52Y	-1.58
V35L	-1.19
R53Q	-1.01
A29Q	-1.29
T48E	-1.42
V35A	-1.37
M51P	-1.5
A40E	-1.27
K39H	-1.33
A29L	-1.34
R30Q	-1.05

Block 4
Target: Ras GTPase-activating protein-binding protein 1, full length (G3BP1, Homo sapiens, UniProt Q13283)
UniProt Q13283, sequence (whole entry, looked up): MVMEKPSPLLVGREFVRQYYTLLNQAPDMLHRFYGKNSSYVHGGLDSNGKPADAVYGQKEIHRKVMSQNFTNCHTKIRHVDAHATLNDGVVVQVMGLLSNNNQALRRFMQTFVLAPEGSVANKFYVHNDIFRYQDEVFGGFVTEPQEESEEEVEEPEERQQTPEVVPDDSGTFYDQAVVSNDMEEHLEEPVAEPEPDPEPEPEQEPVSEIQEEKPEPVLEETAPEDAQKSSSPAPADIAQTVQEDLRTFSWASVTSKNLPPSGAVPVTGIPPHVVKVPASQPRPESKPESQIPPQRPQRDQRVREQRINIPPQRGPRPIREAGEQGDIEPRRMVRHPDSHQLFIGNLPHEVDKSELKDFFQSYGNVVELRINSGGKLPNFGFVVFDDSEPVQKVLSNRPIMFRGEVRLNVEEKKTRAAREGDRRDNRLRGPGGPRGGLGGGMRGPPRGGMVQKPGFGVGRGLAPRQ
Technique: RNA Bind-n-Seq
Molecule type: RNA
Medium: in vitro
Concentration: 200 nM
Notes: whole 134-nt RNA, ends assumed
Together with: 150 mM KCl
Relative to: input library
Reading: higher = stronger binding
All sequences stand within: GGGAGUUCUACAGUCCGACGAUC … UGGAAUUCUCGGGUGUCAAGG
Oligonucleotide	log2 enrichment
ACCAUGCAGGUGGGCAUCUUUGGGAAGUGGGUCAAGGGGGGGAUAGGGAGGGGGGUAACACUUUGGGAACAGGUGGUCCCAGGUCGUUUC	1.51
UUAAAGAAAUGUCCACAAGUAACUUUGAAUCAUCUCCUGAAGUAGAAGAAAGGCCUGCUGUGUCUUUGACUCUUGAUCAGAGCCAGUCAC	-1.01
ACCAUGCAGGUGGGCAUCUUUGGGAAGUGGGGCAAGGGGGGGAUAGGGAGGGAGGUAACACUUUGGGAACAGGUGGUCCCAGGUCGUUUC	1.28
ACCAUGCAGGUGGGCAUCUUUGGGAAGUGGGGCAAGGGGGGGAUAGGGUGGGGGGUAACACUUUGGGAACAGGUGGUCCCAGGUCGUUUC	1.15
UCCUCAAGUCCUGUGCUACACAUCGUAUGUACCGAAUCGGGUGGUGGUGGGAAAGUAUUAUGUUACGCCGUUCGGAUCUGCACUUCCAGC	0.02
CACAGACAACUCGCACCCACACAGACACAGAGGGAAGGGGUUGGGAUGGGGACAGGGUGCACAGCAGGGCGGGGUAGGACCCCAGCCCCU	1.98
ACCAUGCAGGUGGGCAUCUUUGGGAAGUGGGGCAAGGGGGGGAUAGGGAGGGGGGUAACACUGUGGGAACAGGUGGUCCCAGGUCGUUUC	1.3
GCAGGAAGUAAAUACAAAUGGAAAUGCUUCGGAUAGUGGCAGGGGUGGGGGUUGCUAAGGAAAGGGUGGGAUGGGAGUGGGUAAAGAGUU	1.13
UGGGAGGUGGAUUUUGUUUAUUUUUUUAGCUCAUUUCCGGGGGUGGGAAUUUUUUUUUAAUAUGUGUCAUGAAUAAAGUUGUUUUUGAAA	0.412
GUCCUGUGCUACACAUCGUAUGUACCGAAUCGGGGUUUGGGGAAAGGGGAAAAAGGGGAAAGUAUUAUGUUACGCCGUUCGGAUCUGCAC	0.38

Block 5
Target: Sal-like protein 4, full length isoform B (SALL4, Homo sapiens, UniProt Q9UJQ4-2, residues 1-616)
Technique: universal PBM
Molecule type: double-stranded DNA, one strand shown
Medium: in vitro
Concentration: not given
Notes: 8-mer, flanks averaged, mean of replicates
Reading: higher = stronger binding
Oligonucleotide	E-score
ACCAATCT	-0.0146
CACCGCTG	-0.188
CGCAGTGC	-0.244
GGAAGCTA	-0.089
AATAATTC	0.403
ACCCAAGA	-0.0507
GAAGAGTC	-0.0403
GAAGTAAC	0.00188
AGGAATAC	0.152
ACCTGGCT	-0.217
GCAAGCGA	-0.0884
ATCTATCG	0.149
CTATGGAC	-0.0767
AGAGTAGA	0.181
ATGTCCGA	-0.0353
AGGTTACA	0.136
CTGTTGTC	-0.103
GCCCAGCA	-0.304
CCTAGTGA	-0.136
CCGTATGA	0.14
AAGATTAG	0.137
CTGGCAAA	-0.0413
AAATTGCT	0.121
CTCCGCAA	-0.15
ACTGAGTA	0.047

Repeated from above (block 1):
Change	relative binding score
F5H	107%
R132S	113%
L8C	110%
T1N	105%
E89R	7.63%
S63Y	94.7%
I57Q	68.5%
R69T	102%
A175W	91.3%
G71P	71.2%
E125N	111%
S63G	103%
Q2T	89.2%
E129I	92.8%
